Measurements of several laboratories.
Lines come from different studies, so protocols differ. ± marks the error that the study gave.
STAT1 SH2 domain: Signal transducer and activator of transcription 1-alpha/beta, SH2 domain (STAT1, Homo sapiens, UniProt P42224)
BCHE: Cholinesterase (BCHE, Homo sapiens, UniProt P06276)

Structure (SMILES) | target | test | system | setting | scale | endpoint | result
CC[C@H](C)CCCCC(=O)N[C@@H](CCN)C(=O)N[C@H](C(=O)N[C@@H](CCN)C(=O)N[C@H]1CCNC(=O)[C@H]([C@@H](C)O)NC(=O)[C@H](CCN)NC(=O)[C@H](CCN)NC(=O)[C@H](CC(C)C)NC(=O)[C@@H](CC(C)C)NC(=O)[C@H](CCN)NC1=O)[C@@H](C)O | AcrB Klebsiella pneumoniae ATCC 43816 | isothermal titration calorimetry |  | pH 7.5, 25 °C, 0.03% DDM |  | Kd | 0.32 µM
CC(C)C[C@H](NC(=O)[C@H](CO)NC(=O)[C@H](CCC(=O)O)NC(=O)[C@@H](NC(=O)[C@H](CC(C)C)NC(=O)[C@H](CC(=O)O)NC(=O)[C@H](CC(=O)O)NC(=O)[C@H](CC(=O)O)NC(=O)[C@@H](NC(=O)[C@H](Cc1c[nH]c2ccccc12)NC(=O)[C@@H](N)CCC(=O)O)[C@@H](C)O)C(C)C)C(=O)O | Serine protease HTRA1, PDZ domain (Homo sapiens, UniProt Q92743) | isothermal titration calorimetry | isolated PDZ domain | pH 8.0 |  | Kd | 37.3 µM
CC[C@H](C)[C@H](NC(=O)[C@H](CC(=O)O)NC(=O)[C@H](C)NC(=O)[C@H](Cc1ccc(OP(=O)(O)O)cc1)NC(=O)[C@H](CCCCN)NC(=O)[C@@H](NC(=O)[C@H](CC(=O)O)NC(=O)CNC(=O)[C@H](CCCCN)NC(=O)[C@H](CCSC)NC(=O)[C@H](CC(=O)O)NC(=O)[C@H](CC(C)C)NC(=O)[C@H](CCSC)NC(=O)c1ccc2c(c1)C(=O)OC21c2ccc(N(C)C)cc2Oc2cc(N(C)C)ccc21)C(C)C)C(=O)N[C@@H](CCC(=O)O)C(=O)N[C@@H](CO)C(=O)N[C@@H](CO)C(=O)N[C@@H](CC(N)=O)C(=O)N[C@@H](CC(=O)O)C(=O)O | STAT1 SH2 domain | binding |  |  |  | Kd | 1.56 µM
Nc1ncnc2c1ncn2[C@@H]1O[C@H](COP(=O)(O)OP(=O)(O)O)[C@@H](O)[C@H]1O | Cell cycle histidine kinase CckA, G318A; cytoplasmic region (Caulobacter vibrioides, UniProt Q9X688, G318A) |  |  |  |  | Kd | 200 µM
O=C(O)CNC(=O)c1cccnc1 | Ubiquitin carboxyl-terminal hydrolase 13, ZnF-UBD domain (USP13, Homo sapiens, UniProt Q92995) |  |  |  |  | Kd | > 1000 µM
NCCc1c[nH]cn1 | commercial monoclonal antibody |  |  |  | lower = stronger binding | Kd | 0.0003 ± 0.0001 µM
CC[C@H](C)[C@H](NC(=O)[C@H](CC(=O)O)NC(=O)[C@H](Cc1ccccc1)NC(=O)[C@@H](NC(=O)[C@H](CC(N)=O)NC(=O)[C@@H](NC(=O)[C@H](CC(=O)O)NC(=O)c1ccc2c(c1)C(=O)OC21c2ccc(N(C)C)cc2Oc2cc(N(C)C)ccc21)C(C)C)[C@@H](C)O)C(=O)N[C@H](C(=O)N[C@H](C(=O)N[C@@H](Cc1ccc(OP(=O)(O)O)cc1)C(=O)N[C@@H](CC(C)C)C(=O)N[C@@H](CC(C)C)C(=O)N[C@@H](CCC(N)=O)C(=O)NCC(=O)N[C@@H](CCCNC(=N)N)C(=O)N[C@@H](CCCNC(=N)N)C(=O)N[C@@H](CC(C)C)C(=O)N[C@@H](CC(=O)O)C(=O)O)C(C)C)[C@@H](C)O | STAT1 SH2 domain | binding |  |  |  | Kd | 0.101 µM
CC(C)C[C@H](NC(=O)[C@@H](N)CC(=O)O)C(=O)N[C@@H](CC(=O)O)C(=O)N[C@@H](COP(=O)(O)O)C(=O)N[C@@H](CC(=O)O)C(=O)N[C@@H](CC(=O)O)C(=O)N[C@@H](CCC(=O)O)C(=O)N[C@@H](Cc1ccc(O)cc1)C(=O)O | PIH1 domain-containing protein 1, residues 51-180 (PIH1D1, Homo sapiens, UniProt Q9NWS0, K64A) | binding, ITC |  | 20 °C |  | Kd | > 112 µM
NC(=O)N/N=C/c1ccc([N+](=O)[O-])o1 | nfsB (Escherichia coli K-12, UniProt P38489, K14Q) | binding | Escherichia coli |  |  | Kd | 31 ± 1 µM
C[C@H]1CN(c2n[nH]c3nc(N[C@H]4CC[C@H](NS(=O)(=O)CCC(F)(F)F)CC4)ncc23)CCO1 | MAPK11 (Homo sapiens, UniProt Q15759) | competitor, Kinobeads competition | HEK293, K562, placenta extract |  |  | Hill slope | 0.63
CC[C@H](C)[C@H](NC(=O)[C@H](Cc1ccc(OP(=O)(O)O)cc1)NC(=O)[C@H](CCC(=O)O)NC(=O)[C@H](Cc1c[nH]cn1)NC(=O)CNC(=O)[C@H](CC(=O)O)NC(=O)[C@H](CO)NC(=O)[C@H](CO)NC(=O)[C@@H](NC(=O)[C@H](CO)NC(=O)[C@H](CCC(=O)O)NC(=O)c1ccc2c(c1)C(=O)OC21c2ccc(N(C)C)cc2Oc2cc(N(C)C)ccc21)C(C)C)C(=O)N[C@@H](Cc1ccc(O)cc1)C(=O)N[C@H](C(=O)N[C@@H](CC(=O)O)C(=O)N1CCC[C@H]1C(=O)N[C@@H](CCSC)C(=O)N[C@@H](CCC(N)=O)C(=O)N[C@@H](CC(=O)O)C(=O)O)C(C)C | STAT1 SH2 domain | binding |  |  |  | Kd | 1.43 µM
Nc1ncnc2c1ncn2[C@@H]1O[C@@H]2COP(=O)(O)O[C@H]3[C@@H](O)[C@H](n4cnc5c(N)ncnc54)O[C@@H]3COP(=O)(O)O[C@H]3[C@@H](O)[C@H](n4cnc5c(N)ncnc54)O[C@@H]3COP(=O)(O)O[C@H]2[C@H]1O | tad1 (Metaclostridioides mangenotii, UniProt P0DW61) |  |  |  |  | Kd | ~0.0098 µM
CC[C@H](C)[C@H](NC(=O)[C@H](CCC(N)=O)NC(=O)[C@H](Cc1c[nH]cn1)NC(=O)c1ccc2c(c1)C(=O)OC21c2ccc(N(C)C)cc2Oc2cc(N(C)C)ccc21)C(=O)N[C@@H](CO)C(=O)N[C@@H](CC(C)C)C(=O)N[C@@H](CC(=O)O)C(=O)N[C@@H](CC(N)=O)C(=O)N1CCC[C@H]1C(=O)N[C@@H](CC(=O)O)C(=O)N[C@@H](Cc1ccc(OP(=O)(O)O)cc1)C(=O)N[C@@H](CCC(N)=O)C(=O)N[C@@H](CCC(N)=O)C(=O)N[C@@H](CC(=O)O)C(=O)N[C@@H](Cc1ccccc1)C(=O)N[C@@H](Cc1ccccc1)C(=O)N1CCC[C@H]1C(=O)N[C@@H](CCCCN)C(=O)N[C@@H](CC(=O)O)C(=O)O | Ras GTPase-activating protein 1, SH2 domains (RASA1, Homo sapiens, UniProt P20936) | binding |  |  |  | Kd | 1.14 µM
CC1(N2CCC(n3c([C@@H]4CCCNC4)nc4ccccc43)CC2)CCCCCCC1 | BCHE | inhibitor |  | with Triton |  | IC50 | 11.4 ± 8.46 µM
CN1C2CCCC1CC(NC(=O)c1nn(C)c3ccccc13)C2 (centres unmarked) | Soluble acetylcholine receptor (Aplysia californica, UniProt Q8WSF8, K160T/Q74R/S111E/V159L/W164Y) | homologous radioligand competition |  |  |  | Kd | 7.34 ± 2 µM
COc1cc(N)c(Cl)cc1C(=O)NC[C@@H]1CCN2CCC[C@@H]12 | BCHE | inhibitor |  | with Triton |  | IC50 | 17.9 ± 1.21 µM
CN(CC(=O)O)C(=N)NP(=O)(O)O | CKMT1A (Homo sapiens, UniProt P12532, E264A) | microscale thermophoresis |  | pH 7.0, E226A mutant, no substrate |  | Kd | 511 ± 270 µM
